Measured values pooled from the literature.
Numbered parts are unrelated; each lists some results of a single study.
UniProt P51956, sequence (whole entry, looked up): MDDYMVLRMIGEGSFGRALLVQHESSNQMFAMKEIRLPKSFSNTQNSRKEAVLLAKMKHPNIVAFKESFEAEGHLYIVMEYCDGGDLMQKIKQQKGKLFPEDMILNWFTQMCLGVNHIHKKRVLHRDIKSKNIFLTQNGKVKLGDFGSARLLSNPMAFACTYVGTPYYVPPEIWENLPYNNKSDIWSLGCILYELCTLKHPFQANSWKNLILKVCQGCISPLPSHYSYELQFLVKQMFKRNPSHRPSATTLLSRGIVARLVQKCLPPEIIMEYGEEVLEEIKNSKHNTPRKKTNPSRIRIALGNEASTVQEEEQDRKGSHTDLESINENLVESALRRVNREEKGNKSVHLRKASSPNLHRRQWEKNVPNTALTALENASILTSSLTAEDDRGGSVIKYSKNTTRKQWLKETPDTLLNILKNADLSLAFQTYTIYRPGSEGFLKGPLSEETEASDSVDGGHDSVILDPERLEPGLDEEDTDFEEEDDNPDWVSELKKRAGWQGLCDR
UniProt Q16566, sequence (whole entry, looked up): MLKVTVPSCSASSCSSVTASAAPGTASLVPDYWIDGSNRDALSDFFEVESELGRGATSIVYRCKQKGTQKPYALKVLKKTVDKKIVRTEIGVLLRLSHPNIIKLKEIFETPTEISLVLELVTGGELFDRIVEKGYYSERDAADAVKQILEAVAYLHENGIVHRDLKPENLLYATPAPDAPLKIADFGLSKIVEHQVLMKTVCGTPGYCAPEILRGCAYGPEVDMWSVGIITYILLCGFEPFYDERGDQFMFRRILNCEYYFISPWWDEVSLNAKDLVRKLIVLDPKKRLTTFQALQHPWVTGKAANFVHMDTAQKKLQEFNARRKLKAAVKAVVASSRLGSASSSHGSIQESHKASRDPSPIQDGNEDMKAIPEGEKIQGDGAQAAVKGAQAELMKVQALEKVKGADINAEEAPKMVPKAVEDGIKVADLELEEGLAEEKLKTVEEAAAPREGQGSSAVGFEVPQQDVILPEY
UniProt Q96GD4, sequence (whole entry, looked up): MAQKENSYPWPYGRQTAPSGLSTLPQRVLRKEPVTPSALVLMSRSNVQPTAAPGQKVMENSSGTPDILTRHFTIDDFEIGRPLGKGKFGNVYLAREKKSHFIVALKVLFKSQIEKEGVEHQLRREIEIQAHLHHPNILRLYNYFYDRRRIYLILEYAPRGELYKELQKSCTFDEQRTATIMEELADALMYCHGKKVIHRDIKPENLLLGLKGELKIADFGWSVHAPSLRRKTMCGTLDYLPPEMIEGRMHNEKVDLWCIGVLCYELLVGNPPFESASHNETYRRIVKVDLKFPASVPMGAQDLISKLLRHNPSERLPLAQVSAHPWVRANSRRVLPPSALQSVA
UniProt O75676, sequence (whole entry, looked up): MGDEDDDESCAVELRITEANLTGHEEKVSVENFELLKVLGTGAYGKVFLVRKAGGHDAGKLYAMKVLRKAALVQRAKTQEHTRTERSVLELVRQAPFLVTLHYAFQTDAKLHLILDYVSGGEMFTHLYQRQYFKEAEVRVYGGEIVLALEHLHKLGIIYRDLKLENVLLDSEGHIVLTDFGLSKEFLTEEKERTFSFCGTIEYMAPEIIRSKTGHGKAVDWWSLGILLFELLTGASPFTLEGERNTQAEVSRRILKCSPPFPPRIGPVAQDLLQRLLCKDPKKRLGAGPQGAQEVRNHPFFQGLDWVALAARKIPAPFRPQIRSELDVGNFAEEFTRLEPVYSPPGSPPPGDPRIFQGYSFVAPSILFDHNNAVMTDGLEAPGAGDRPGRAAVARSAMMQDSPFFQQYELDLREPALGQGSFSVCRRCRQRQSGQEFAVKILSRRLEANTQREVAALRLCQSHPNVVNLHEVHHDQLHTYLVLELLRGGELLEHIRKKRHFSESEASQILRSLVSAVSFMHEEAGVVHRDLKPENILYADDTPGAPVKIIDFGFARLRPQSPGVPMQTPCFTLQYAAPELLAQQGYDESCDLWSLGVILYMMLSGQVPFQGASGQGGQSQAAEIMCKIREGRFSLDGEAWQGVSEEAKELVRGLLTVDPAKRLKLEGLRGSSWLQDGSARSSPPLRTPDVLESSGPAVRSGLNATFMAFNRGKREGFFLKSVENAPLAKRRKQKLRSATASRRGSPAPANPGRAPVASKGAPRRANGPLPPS
UniProt P20794, sequence (whole entry, looked up): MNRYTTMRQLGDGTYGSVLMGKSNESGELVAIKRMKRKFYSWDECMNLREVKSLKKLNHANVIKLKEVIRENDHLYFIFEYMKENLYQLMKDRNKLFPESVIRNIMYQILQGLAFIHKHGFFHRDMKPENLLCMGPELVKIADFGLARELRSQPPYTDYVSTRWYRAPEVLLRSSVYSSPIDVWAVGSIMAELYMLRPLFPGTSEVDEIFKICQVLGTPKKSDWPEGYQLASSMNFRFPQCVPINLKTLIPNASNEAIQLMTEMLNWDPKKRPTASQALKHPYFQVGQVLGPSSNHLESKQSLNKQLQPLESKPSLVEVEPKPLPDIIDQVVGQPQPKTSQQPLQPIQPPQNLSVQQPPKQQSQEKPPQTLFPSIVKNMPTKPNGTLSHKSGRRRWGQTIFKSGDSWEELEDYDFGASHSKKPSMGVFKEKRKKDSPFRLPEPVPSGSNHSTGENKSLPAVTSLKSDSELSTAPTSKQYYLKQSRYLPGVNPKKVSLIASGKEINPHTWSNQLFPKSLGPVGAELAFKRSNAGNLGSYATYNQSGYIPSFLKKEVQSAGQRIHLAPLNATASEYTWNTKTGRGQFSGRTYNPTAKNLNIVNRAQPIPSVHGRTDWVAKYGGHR
UniProt P35968, sequence (whole entry, looked up): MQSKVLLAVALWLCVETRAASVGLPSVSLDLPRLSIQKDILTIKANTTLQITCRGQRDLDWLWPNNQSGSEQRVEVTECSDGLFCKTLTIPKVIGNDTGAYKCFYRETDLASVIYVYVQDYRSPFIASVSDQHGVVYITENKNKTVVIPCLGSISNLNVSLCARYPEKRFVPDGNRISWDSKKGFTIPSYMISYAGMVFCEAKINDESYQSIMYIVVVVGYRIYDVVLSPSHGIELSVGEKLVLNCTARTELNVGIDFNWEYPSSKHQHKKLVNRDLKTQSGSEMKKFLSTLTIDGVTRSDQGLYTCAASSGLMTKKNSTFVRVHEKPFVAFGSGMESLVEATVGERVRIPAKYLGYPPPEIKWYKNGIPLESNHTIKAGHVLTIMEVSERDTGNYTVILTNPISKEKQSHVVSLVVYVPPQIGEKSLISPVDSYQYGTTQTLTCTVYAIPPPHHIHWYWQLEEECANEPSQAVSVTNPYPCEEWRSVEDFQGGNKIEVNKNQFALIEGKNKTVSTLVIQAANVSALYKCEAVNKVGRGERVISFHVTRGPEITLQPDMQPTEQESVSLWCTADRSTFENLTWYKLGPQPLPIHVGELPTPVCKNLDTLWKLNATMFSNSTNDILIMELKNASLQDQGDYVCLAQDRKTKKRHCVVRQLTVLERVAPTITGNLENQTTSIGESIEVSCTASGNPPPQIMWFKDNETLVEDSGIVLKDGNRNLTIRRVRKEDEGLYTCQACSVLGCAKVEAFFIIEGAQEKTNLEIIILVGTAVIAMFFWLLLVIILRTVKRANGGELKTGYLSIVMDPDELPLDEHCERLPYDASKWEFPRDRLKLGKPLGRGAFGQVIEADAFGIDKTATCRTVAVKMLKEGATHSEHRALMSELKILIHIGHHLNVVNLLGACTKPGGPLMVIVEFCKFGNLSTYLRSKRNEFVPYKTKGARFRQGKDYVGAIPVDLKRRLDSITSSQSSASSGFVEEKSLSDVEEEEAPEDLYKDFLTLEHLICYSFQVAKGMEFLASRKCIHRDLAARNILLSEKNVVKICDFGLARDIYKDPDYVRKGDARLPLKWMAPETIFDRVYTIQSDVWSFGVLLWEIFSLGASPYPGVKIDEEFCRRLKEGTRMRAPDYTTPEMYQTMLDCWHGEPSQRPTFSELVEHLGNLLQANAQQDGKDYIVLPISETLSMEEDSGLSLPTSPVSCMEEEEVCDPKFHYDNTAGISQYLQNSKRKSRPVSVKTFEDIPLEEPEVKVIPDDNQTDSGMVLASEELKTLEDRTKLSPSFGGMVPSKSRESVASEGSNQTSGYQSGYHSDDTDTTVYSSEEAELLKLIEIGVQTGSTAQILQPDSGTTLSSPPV
UniProt Q8N568, sequence (whole entry, looked up): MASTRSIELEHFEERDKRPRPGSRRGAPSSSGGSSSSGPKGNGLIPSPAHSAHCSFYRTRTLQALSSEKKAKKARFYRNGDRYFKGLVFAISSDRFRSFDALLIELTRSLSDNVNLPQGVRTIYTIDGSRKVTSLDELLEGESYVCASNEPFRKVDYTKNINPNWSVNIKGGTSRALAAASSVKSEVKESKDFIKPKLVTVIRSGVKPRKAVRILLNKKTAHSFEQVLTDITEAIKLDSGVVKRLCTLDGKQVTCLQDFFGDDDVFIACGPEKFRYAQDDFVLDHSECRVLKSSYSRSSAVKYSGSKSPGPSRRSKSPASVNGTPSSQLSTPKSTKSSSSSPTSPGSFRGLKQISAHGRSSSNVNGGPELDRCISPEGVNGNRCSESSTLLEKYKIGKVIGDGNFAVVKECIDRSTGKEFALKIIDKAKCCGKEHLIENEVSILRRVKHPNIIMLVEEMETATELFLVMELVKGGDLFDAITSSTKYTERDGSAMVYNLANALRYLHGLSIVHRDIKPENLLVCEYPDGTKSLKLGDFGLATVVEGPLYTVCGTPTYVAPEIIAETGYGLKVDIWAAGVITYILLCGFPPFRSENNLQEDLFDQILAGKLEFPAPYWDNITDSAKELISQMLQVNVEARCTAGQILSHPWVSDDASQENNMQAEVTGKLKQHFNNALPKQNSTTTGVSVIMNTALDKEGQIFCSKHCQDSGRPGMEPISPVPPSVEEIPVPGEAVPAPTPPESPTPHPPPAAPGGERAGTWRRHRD

Set 1 — cell line: mouse MPNST tumor cells; method: high-content nuclear imaging; measured: cell number; concentration: 10 µM; time: 12 h; setting: mean of 2 replicates; baseline: plate mean; reading: higher = more cells; quantity: nuclei count
CN1CCCC(n2nc(Cc3ccc(Cl)cc3)c3ccccc3c2=O)CC1 (centres unmarked): -3.12 z-score
O=C(COc1ccc(Cl)cc1)N1CCN(Cc2ccc3c(c2)OCO3)CC1: 2.36 z-score
COc1cc2c(cc1OC)CC(=O)N(CCCN(C)C[C@H]1Cc3cc(OC)c(OC)cc31)CC2: 0.0637 z-score
COc1ccc2[nH]c([S+]([O-])Cc3ncc(C)c(OC)c3C)nc2n1 (centres unmarked): 1.49 z-score
Nc1ccccc1S(N)(=O)=O: 1.18 z-score
COc1ccccc1-c1c[nH]c2ncc(-c3cncc(C(=O)N(C)C)c3)cc12: 0.499 z-score

Set 2 — SMILES: Cn1cnc2cc3c(Nc4cccc(Br)c4)ncnc3cc21; observed: enzyme activity; action: inhibitor; concentration: 0.5 µM; baseline: control; quantity: remaining activity
CAMK4 (Homo sapiens, UniProt Q16566): 98.6%
AKT2 (Homo sapiens, UniProt P31751): 106%
MAP2K1 (Homo sapiens, UniProt Q02750): 113%
MAPK1 (Homo sapiens, UniProt P28482): 94.2%
ROCK1 (Homo sapiens, UniProt Q13464): 98.6%
GRK4 (Homo sapiens, UniProt P32298): 99.5%
TXK (Homo sapiens, UniProt P42681): 86.7%
NEK3 (Homo sapiens, UniProt P51956): 88.2%
Cyclin-dependent kinase 9, with cyclin K (CDK9, Homo sapiens, UniProt P50750): 100%
DCLK2 (Homo sapiens, UniProt Q8N568): 92.9%
RPS6KA4 (Homo sapiens, UniProt O75676): 96.3%
Cyclin-dependent kinase 1, with cyclin A (CDK1, Homo sapiens, UniProt P06493): 95.8%
KDR (Homo sapiens, UniProt P35968): 71.7%

Set 3 — observed: cell-free assay; method: competition with immobilised ligand; concentration: 0.1 µM; quantity: remaining binding
SMILES: CCOC(=O)c1cc2cc(-c3cc(C(=O)NCc4ccc(C(=O)O)cc4)nn3C)ccc2[nH]1
STK4 (Homo sapiens, UniProt Q13043): 100%
Aurora kinase B (AURKB, Homo sapiens, UniProt Q96GD4): 100%
MUSK (Homo sapiens, UniProt O15146): 64%
MAK (Homo sapiens, UniProt P20794): 100%
MET (Homo sapiens, UniProt P08581, Y1235D): 86%

Set 4 — host: mouse; medium: microsomes or S9; concentration: 2 µM; time: 0.5 h; quantity: remaining compound
COc1ccc(CNC(=O)CCc2nnc3ccc(-c4ccc(Cl)cc4)nn23)c(OC)c1: 0.529%
CN(Cc1ccc(F)cc1)Cc1ccc([N+](=O)[O-])cc1: 0.104%
CN1CCN(C(=O)CCn2c(-c3ccccc3)cc3ccccc32)CC1: 3.54%
CC(C)Cc1cc(C(=O)O)c(S(=O)(=O)NC(C)(C)C)s1: 96.4%
COCCCn1c(C(=O)Nc2cc(Cl)ccc2OC)cc2c(=O)n3ccccc3nc21: 3.49%

Some of these lines once more (set 2):
Cyclin-dependent kinase 9, with cyclin K (CDK9, Homo sapiens, UniProt P50750): 100%
CAMK4 (Homo sapiens, UniProt Q16566): 98.6%
KDR (Homo sapiens, UniProt P35968): 71.7%
DCLK2 (Homo sapiens, UniProt Q8N568): 92.9%
